Measured values gathered from unrelated publications.
Parts stem from different laboratories: compare values within a part only. Values joined by “and” are separate records of one study, mostly repeats; a detail may differ.
Chain of UniProt Q9Y6R4 (whole entry, looked up): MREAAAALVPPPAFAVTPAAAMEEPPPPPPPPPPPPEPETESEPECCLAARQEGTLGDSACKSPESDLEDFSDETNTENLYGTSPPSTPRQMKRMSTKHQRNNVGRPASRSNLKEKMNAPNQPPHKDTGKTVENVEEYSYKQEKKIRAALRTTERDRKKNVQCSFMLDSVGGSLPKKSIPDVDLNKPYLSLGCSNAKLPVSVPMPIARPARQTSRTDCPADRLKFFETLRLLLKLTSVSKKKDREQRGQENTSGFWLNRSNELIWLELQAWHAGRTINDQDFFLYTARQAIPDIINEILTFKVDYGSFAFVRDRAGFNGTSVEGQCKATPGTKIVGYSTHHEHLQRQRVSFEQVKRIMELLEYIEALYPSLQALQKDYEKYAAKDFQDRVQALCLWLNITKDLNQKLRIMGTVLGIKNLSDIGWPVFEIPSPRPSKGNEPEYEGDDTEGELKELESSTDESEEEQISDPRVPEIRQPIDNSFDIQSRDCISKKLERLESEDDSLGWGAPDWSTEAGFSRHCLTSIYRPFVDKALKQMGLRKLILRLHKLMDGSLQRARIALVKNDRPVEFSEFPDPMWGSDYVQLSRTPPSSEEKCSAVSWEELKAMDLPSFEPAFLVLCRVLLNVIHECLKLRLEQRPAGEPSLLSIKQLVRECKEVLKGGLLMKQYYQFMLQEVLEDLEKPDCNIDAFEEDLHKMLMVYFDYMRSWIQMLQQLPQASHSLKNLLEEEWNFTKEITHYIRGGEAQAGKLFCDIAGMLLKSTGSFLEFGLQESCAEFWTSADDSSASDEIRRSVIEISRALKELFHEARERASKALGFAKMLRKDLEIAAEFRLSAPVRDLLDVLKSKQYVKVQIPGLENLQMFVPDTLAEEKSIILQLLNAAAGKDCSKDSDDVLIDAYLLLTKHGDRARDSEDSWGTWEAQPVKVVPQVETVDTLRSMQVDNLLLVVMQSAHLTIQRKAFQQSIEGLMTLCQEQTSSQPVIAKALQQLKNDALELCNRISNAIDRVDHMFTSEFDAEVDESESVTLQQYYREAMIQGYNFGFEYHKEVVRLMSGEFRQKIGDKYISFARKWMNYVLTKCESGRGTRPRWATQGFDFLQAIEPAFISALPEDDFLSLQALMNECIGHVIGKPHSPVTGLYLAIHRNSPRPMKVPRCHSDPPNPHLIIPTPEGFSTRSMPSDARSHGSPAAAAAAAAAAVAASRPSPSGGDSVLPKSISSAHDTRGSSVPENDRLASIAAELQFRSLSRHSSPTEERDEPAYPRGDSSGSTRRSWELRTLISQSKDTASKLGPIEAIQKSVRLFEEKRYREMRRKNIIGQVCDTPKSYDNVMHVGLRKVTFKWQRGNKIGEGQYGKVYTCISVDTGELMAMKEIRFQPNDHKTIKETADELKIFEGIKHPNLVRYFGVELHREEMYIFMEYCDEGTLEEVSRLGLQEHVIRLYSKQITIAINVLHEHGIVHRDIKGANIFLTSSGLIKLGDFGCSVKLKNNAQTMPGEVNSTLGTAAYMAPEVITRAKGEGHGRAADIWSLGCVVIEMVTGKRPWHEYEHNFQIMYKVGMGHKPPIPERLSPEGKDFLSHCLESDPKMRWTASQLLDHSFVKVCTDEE
Chain of UniProt Q96PN8 (whole entry, looked up): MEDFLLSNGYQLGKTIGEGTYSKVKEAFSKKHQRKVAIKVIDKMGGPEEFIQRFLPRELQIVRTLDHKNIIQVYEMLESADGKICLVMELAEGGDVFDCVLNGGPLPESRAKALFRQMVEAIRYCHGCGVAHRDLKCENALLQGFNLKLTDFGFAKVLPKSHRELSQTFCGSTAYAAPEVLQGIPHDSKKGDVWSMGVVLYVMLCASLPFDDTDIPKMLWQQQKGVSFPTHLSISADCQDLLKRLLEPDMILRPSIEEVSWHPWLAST

Study 1
SMILES: CC[C@@]1(c2ccccc2)C2=C(CC(C)(C)CC2=O)Nc2n[nH]cc21
Tested at: 1 µM
Quantity: remaining binding
NEK11 (Homo sapiens, UniProt Q8NG66); binding, competition with immobilised ligand: 76%
MAK (Homo sapiens, UniProt P20794); binding, competition with immobilised ligand: 96%
MAP3K4 (Homo sapiens, UniProt Q9Y6R4); kinase binding, KINOMEscan; relative to: DMSO control: 100%
eIF-2-alpha kinase GCN2, C-terminal kinase domain (EIF2AK4, Homo sapiens, UniProt Q9P2K8, S808G); binding, competition with immobilised ligand: 85%
PIK3C3 (Homo sapiens, UniProt Q8NEB9); binding, competition with immobilised ligand: 94%
Myosin-IIIb (MYO3B, Homo sapiens, UniProt Q8WXR4); binding, competition with immobilised ligand: 100%
LCK (Homo sapiens, UniProt P06239); binding, competition with immobilised ligand: 100%
CAMK1D (Homo sapiens, UniProt Q8IU85); kinase binding, KINOMEscan; relative to: DMSO control: 100%
EPHA1 (Homo sapiens, UniProt P21709); binding, competition with immobilised ligand: 95%
JAK3 (Homo sapiens, UniProt P52333); kinase binding, KINOMEscan; relative to: DMSO control: 100%
RIOK3 (Homo sapiens, UniProt O14730); binding, competition with immobilised ligand: 100%
RET (Homo sapiens, UniProt P07949); binding, competition with immobilised ligand: 72%
FLT3 ITD/F691L, human; KINOMEscan: 92%
EGFR (Homo sapiens, UniProt P00533, del752-759); binding, competition with immobilised ligand: 100%
Aurora kinase C (AURKC, Homo sapiens, UniProt Q9UQB9); binding, competition with immobilised ligand: 99%
CDKL1 (Homo sapiens, UniProt Q00532); binding, competition with immobilised ligand: 73%

Study 2
Structure (SMILES): O=c1[nH]c(=S)n(C[C@H]2CCCO2)c2nc[nH]c12
Observed: enzyme activity
Quantity: inhibition
AOC3: Amine oxidase [copper-containing] 3 (AOC3, Homo sapiens, UniProt Q16853)
Chain of UniProt Q16853 (whole entry, looked up): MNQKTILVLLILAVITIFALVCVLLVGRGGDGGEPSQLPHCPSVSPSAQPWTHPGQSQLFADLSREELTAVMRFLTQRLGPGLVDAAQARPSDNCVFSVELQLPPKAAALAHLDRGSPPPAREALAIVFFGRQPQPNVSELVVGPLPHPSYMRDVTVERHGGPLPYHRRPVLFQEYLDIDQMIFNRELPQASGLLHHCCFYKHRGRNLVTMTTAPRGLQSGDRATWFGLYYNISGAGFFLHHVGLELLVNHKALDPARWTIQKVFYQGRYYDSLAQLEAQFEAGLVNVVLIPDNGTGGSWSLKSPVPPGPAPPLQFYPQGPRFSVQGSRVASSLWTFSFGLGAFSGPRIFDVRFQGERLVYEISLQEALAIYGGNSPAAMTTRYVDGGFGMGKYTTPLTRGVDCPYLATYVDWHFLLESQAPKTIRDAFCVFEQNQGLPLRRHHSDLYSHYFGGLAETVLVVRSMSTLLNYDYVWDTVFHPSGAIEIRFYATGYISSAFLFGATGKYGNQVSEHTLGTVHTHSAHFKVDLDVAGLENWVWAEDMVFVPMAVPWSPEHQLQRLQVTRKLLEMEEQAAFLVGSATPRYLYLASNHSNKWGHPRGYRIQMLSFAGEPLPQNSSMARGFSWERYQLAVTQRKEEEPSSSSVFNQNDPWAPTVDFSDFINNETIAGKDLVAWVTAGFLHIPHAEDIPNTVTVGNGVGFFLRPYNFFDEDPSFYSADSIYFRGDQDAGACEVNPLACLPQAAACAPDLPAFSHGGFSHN
MPO: Myeloperoxidase (MPO, Homo sapiens, UniProt P05164)
Chain of UniProt P05164 (whole entry, looked up): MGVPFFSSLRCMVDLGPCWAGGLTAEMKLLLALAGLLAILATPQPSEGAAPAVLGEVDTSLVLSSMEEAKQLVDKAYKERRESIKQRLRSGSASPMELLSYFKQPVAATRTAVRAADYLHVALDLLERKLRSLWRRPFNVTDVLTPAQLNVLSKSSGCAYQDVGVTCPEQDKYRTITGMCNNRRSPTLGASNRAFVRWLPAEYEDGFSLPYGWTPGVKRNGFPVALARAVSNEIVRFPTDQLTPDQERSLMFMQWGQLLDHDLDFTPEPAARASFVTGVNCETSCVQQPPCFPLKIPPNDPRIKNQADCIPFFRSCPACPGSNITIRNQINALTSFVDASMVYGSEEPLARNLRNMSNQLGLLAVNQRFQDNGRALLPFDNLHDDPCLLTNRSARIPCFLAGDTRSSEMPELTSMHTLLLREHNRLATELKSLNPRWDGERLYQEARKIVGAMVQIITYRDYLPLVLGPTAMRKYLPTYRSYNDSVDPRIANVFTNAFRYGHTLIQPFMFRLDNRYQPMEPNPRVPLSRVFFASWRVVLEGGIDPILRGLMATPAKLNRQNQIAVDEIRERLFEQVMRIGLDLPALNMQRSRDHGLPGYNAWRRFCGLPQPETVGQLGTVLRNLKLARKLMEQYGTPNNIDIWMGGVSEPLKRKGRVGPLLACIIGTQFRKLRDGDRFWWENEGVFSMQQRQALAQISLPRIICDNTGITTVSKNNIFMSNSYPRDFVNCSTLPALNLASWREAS
AOC3; Amplex Red H2O2 production; 0.3704 µM: 11.8%
MPO; 0.0046 µM: 11.2% and 12.7% and -16.8% and -8.33% and -0.876%
MPO; 0.0005 µM: -15.1% and -31.2% and -9.72% and -8.91% and -0.666% and -17.9% and -24.9%
AOC3; inhibitor, fluorescence; 0.1111 µM: -22.8%
MPO; 0.0412 µM: 18.9% and 29.5% and 14.3% and 16.2% and 54.7% and 17% and 30.6%
MPO; 0.0003 µM: -11.3% and -14.6% and -0.139% and -17.1% and -4.04% and 13.7% and -9.14%
MPO; 5 µM: 99.8% and 99.7% and 99.6% and 100%
AOC3; inhibitor, fluorescence; 3 µM: -69%

Study 3
Structure (SMILES): C[C@@H]1CN(c2ccc(-c3cc(C(=O)NCCOCCOCCOCCOCCNC(=O)Cn4cc(-c5[nH]cc(C(=O)N[C@@H](CC(N)=O)c6ccc(F)c(Cl)c6)c5-c5ccc(Cl)cc5F)cn4)ccc3F)cc2NC(=O)c2c[nH]c(=O)cc2C(F)(F)F)C[C@H](C)N1C
Observed: thermal unfolding
Method: differential scanning fluorimetry
Tested at: 5.5 µM
Reading: higher = more unfolded
Quantity: SYPRO Orange fluorescence
DCAF1: DDB1- and CUL4-associated factor 1 (DCAF1, Homo sapiens, UniProt Q9Y4B6)
Chain of UniProt Q9Y4B6 (whole entry, looked up): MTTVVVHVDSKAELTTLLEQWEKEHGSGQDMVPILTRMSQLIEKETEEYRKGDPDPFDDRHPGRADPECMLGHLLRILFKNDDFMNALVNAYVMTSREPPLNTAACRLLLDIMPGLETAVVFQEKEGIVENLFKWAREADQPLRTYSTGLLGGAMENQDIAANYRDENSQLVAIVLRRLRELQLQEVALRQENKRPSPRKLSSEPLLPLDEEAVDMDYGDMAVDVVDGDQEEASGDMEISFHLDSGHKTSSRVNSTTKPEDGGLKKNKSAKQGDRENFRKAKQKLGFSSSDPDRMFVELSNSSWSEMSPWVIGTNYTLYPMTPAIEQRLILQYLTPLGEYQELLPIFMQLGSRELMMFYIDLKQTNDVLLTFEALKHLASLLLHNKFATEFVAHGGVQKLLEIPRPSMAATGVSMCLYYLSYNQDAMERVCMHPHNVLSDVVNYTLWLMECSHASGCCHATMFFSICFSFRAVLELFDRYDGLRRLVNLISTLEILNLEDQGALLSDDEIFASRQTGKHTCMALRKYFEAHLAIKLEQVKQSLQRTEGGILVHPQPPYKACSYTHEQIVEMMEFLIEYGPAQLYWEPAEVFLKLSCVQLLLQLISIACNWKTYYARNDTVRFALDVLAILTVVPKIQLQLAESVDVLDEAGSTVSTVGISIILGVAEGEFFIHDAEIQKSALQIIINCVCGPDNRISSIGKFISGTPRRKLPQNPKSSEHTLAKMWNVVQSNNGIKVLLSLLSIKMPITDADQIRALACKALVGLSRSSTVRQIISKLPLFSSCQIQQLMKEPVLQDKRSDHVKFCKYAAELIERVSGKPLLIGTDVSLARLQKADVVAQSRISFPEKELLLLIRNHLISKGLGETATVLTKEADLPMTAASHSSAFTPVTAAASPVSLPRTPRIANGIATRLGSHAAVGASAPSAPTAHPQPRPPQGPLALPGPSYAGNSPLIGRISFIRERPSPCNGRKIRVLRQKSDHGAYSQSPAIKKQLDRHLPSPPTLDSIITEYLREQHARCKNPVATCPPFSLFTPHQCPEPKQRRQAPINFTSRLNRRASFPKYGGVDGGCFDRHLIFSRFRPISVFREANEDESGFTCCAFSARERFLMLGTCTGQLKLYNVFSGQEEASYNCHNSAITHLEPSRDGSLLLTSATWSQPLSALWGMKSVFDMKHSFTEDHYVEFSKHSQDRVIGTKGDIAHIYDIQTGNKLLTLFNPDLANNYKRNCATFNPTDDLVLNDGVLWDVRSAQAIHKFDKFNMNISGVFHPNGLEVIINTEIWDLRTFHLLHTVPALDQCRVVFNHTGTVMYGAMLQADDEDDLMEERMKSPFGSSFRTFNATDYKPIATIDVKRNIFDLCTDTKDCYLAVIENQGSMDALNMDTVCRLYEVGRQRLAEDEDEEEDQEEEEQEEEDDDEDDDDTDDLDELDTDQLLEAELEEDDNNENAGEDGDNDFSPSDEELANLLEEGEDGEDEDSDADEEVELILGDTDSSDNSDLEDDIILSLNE
WDR5: WD repeat-containing protein 5 (WDR5, Homo sapiens, UniProt P61964)
DCAF1; 87.41 °C: 37500 a.u.
DCAF1; 42.6 °C: 11200 a.u.
WDR5; 69.61 °C: 6760 a.u.
DCAF1; 46.4 °C: 12900 a.u.
DCAF1; 92.61 °C: 32500 a.u.
WDR5; 56.81 °C: 12700 a.u.
WDR5; 67.61 °C: 6970 a.u.
WDR5; 39.2 °C: 14300 a.u.
DCAF1; 55.61 °C: 20800 a.u.
WDR5; 34 °C: 14400 a.u.
WDR5; 88.21 °C: 43600 a.u.

Study 4
SMILES: O=C(Nc1ccccc1)Nc1cccc(Oc2ccc3nccn3n2)c1
Quantity: remaining binding
MAP3K4 (Homo sapiens, UniProt Q9Y6R4); cell-free binding; 1 µM: 96%
MAP2K2 (Homo sapiens, UniProt P36507); binding, competition with immobilised ligand; 1 µM: 100%
GSK3B (Homo sapiens, UniProt P49841); binding; 1 µM: 100%
STK10 (Homo sapiens, UniProt O94804); binding, competition with immobilised ligand; 1 µM: 82%
PRKCQ (Homo sapiens, UniProt Q04759); binding; 1 µM: 90%
PRKD1 (Homo sapiens, UniProt Q15139); binding; 1 µM: 100%
MAPK13 (Homo sapiens, UniProt O15264); binding, competition with immobilised ligand; 1 µM: 100%
MAP2K7 (Homo sapiens, UniProt O14733); binding; 1 µM: 100%
LYN (Homo sapiens, UniProt P07948); binding, competition with immobilised ligand; 1 µM: 100%
MAPK14 (Homo sapiens, UniProt Q16539); binding, competition with immobilised ligand; 1 µM: 100%
TSSK3 (Homo sapiens, UniProt Q96PN8); binding; 1 µM: 100%
STK16 (Homo sapiens, UniProt O75716); binding; 1 µM: 100%
Tyrosine-protein kinase ABL1, phosphorylated (ABL1, Homo sapiens, UniProt P00519, E255K); binding, competition with immobilised ligand; 1 µM: 93%
MAPK9 (Homo sapiens, UniProt P45984); binding, competition with immobilised ligand; 1 µM: 100%
PDGFRA (Homo sapiens, UniProt P16234); DiscoverX cell-free binding; 1000 nM: 1.1%
TEK (Homo sapiens, UniProt Q02763); binding, competition with immobilised ligand; 1 µM: 7.6%
DSTYK (Homo sapiens, UniProt Q6XUX3); binding; 1 µM: 100%
PI4KB (Homo sapiens, UniProt Q9UBF8); binding; 1 µM: 100%
CAMK2D (Homo sapiens, UniProt Q13557); binding; 1 µM: 100%

A few entries again (study 4):
Tyrosine-protein kinase ABL1, phosphorylated (ABL1, Homo sapiens, UniProt P00519, E255K); binding, competition with immobilised ligand; 1 µM: 93%
MAPK9 (Homo sapiens, UniProt P45984); binding, competition with immobilised ligand; 1 µM: 100%
PDGFRA (Homo sapiens, UniProt P16234); DiscoverX cell-free binding; 1000 nM: 1.1%
TEK (Homo sapiens, UniProt Q02763); binding, competition with immobilised ligand; 1 µM: 7.6%
DSTYK (Homo sapiens, UniProt Q6XUX3); binding; 1 µM: 100%
